Experimental data gathered from unrelated publications.
Numbered parts are unrelated; each lists some results of a single study. Substitutions count along the parent as printed.

Set 1 — target: CCNB1, cyclin fold, Cln2 fusion (human); technique: yeast growth competition, sequencing; matrix: yeast; notes: strong parent motif; reference: not given; reading: higher = stronger binding
Parent: PKN2 docking peptide (human); VSAVQKLDFSDTM; partner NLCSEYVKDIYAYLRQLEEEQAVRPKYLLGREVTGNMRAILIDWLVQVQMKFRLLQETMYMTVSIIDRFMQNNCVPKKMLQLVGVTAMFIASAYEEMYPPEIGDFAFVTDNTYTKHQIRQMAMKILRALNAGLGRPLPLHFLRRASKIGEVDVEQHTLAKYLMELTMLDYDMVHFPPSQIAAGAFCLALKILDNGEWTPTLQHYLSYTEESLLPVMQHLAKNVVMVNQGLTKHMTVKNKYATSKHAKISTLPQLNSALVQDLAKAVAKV
Variant | normalised enrichment score
D8H | 1.09
V4Q | 0.419
L7K | -0.0622
V4G | -0.763
D11L | 1.46
T12C | 2.01
D11K | 0.521
S10F | 1.04
T12H | 2.03
L7A | 0.308
D8F | 0.993
S2T | 2.29
S2C | 1.48
V1G | 2.33
M13R | 1.9
A3D | -0.549
F9R | 0.611
A3Y | 1.36

Set 2 — technique: DHFR PCA, deep sequencing; matrix: yeast; together with: (+)-ABA 0.0091 µM; reference: wild-type fitted maximum; reading: higher = stronger binding
Target: ABI1, truncated, D143A, DHFR fusion (Arabidopsis thaliana)
Notes: methotrexate growth selection, single substitutions
Parent: PYL1, truncated, DHFR fusion (Arabidopsis thaliana); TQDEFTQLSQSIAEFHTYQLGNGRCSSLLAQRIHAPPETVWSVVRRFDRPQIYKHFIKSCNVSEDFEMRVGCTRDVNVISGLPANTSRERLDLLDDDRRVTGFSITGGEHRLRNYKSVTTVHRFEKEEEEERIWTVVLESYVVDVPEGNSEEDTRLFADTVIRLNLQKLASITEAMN
Variant | relative binding score [%]
D3E | 50.8
D97E | 61.7
Y141Q | -4.37
V76Q | 1.57
G71L | -2.93
V100A | 29.4
T1S | 23.8
T154Q | -2.88
N22H | 34.3
R46K | 25.2
E174W | -4.47
I172Y | -2.11
S11N | 4.62
T160H | -2.62

Set 3 — technique: RNA Bind-n-Seq; molecule type: RNA; matrix: in vitro; tested at: not given; notes: RNA with constant flanks, ends assumed; reference: input RNA pool; reading: higher = stronger binding
Target: RING finger protein unkempt homolog, zinc fingers 1-6, GST-SBP tag (UNK, Homo sapiens, UniProt Q9C0B0, residues 30-357)
Shared flanks, not repeated: GGGAGUUCUACAGUCCGACGAUC … CAACAGAGGAUUGAGCAUCA
Target sequence (chain): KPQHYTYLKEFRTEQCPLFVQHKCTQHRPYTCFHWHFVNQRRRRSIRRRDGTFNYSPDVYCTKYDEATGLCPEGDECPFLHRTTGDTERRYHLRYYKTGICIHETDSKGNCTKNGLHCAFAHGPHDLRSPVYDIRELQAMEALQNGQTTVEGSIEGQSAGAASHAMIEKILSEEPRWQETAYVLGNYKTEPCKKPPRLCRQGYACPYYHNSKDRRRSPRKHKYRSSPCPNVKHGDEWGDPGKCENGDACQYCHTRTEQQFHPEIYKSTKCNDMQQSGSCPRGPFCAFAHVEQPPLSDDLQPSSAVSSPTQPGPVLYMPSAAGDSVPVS
Sequence | bound/input enrichment
CAGGGACGCUUUGAUGUAAAAAUUGAAAUUAAGAGCUGAUCACAAGCACAAAUCUUUCCCACCCGCCAUUUAAUAAGUUAAAAAAAGAUACACAAACCUACUAGUCUUGAACAAACUGUC | 1.15 ratio
UUUUUUUUAAAUUUUUUUAUUUUCUUUUUGUUUGUUUCGUUUUGGGGAGGGGUAAAAGUUCUCCGCACAAGUGUUUUACAUAAUUUGUACCAAAAAAAUUACACACAAAAAAAAAAAAAG | 1.08 ratio
CCCACUAAACCAUCUCUCAGGCUCCUGAGAGGUUUUUUGUUUGUUUGUUUUUGUUUUUUAAACCGGUCUCAGCUGGCCUGGAGCUUGCAGUGUAGAUCAGGCUGGCCUAGAGCUUACUGA | 0.203 ratio
UGGUGUACAAAUACGACAUUUUUGCAAGAAGGAAUGCCUACUUCUGCACGAUGUGAUGAUUCCGAAGCUUUGAAAAAGAAGGGUUGCCAGCCAAGUGACAUAGAGAAUCCCAGAGGCUCU | 0.0903 ratio
GAUGCCAUUUAUGGACACCCCCUCUUCCCUCUCUUAGCACUGAUUUUUGAGAAAUGUGAAUCCGCUACUUGUACCCCCCGCGAGCCGGGGGUGGCGGGCGGGGACGUCUGCUCGUCAGAG | 4.89 ratio
GAGAGAAUGUGUGUGUGUGUGUGUGUGCGCGUGCGUGAGAGGAUAAACUUUAACCUUCCCACCCGUUUAUUCUUUUACUUUAGUGUUUUCUUAGUUAGAAAACCACUAUUAACAUUAAAU | 0.891 ratio
GUUCCUUUCGGCAGUGCUGCGUGCCCAGAUUCUUAAUAACAUUAAGUCUGUUACUGUGUACCGCAAUGGUUUAUAUUUCAUUAUGCUACUAAAGGUUCAUCUUUUCUACAUUAAAAAUAU | 0.227 ratio
CUGAGAAUCUAUCUUGAUGAAAGGAGAGAUGUCUUGGAUGACCUUGUAACCUUGCAUAAUUUCCGAAAUCAGUUCUUGCCGAAUGCACUGAGAGAAUUUUUUCGUCAUAUUCAUGCCCCU | 0.152 ratio
CUUAAAAUUAAUUUUCAUGGUUCCAAGUCAUCAGAUUCUAGUGAAGUUCACAAGAGUAAAACCGAAAUUAAUGUGUUAGAACCAGUUAUGUCACAGCUAUCAAAUUGCCAAGAUAAUUCU | 0.395 ratio
GACUGGGAGCAGACUCAGAAAAUCUACAAUUGUCACGUGCUGCUGAACAGCAAAGGGGCAGCCGUGGCCACUUACAGGAAGACACAUCUGUGUGACGUAGAGAUUCCAGGGCAGGGGCCU | 0.249 ratio
ACUCAGAAGCCGAUUCAUCAGCUUUUUGAUUACAUCUGUGGAGUAAGCACAGGGGCCAUAUCCGCAUUUAUGCUGGGAUUGUUUCACAUGCCGCUGGAUGAAUGUGAGGAACUCUAUCGA | 0.137 ratio

Set 4 — technique: EMSA with sequencing; molecule type: double-stranded DNA, one strand shown; matrix: in vitro; tested at: 10 and 20 nM; reference: negative control set to 0; reading: higher = stronger binding
Target: Hepatocyte nuclear factor 3-alpha (Foxa1, Mus musculus, UniProt P35582, residues 1-468, full length assumed)
Notes: whole designed probe, mean of two concentrations, ends assumed
Shared flanks, not repeated: GTGAGCGGTGCCCATTGATGGGGAAC … TTTCACTGGGATCGTGGGGAC
Residues (chain): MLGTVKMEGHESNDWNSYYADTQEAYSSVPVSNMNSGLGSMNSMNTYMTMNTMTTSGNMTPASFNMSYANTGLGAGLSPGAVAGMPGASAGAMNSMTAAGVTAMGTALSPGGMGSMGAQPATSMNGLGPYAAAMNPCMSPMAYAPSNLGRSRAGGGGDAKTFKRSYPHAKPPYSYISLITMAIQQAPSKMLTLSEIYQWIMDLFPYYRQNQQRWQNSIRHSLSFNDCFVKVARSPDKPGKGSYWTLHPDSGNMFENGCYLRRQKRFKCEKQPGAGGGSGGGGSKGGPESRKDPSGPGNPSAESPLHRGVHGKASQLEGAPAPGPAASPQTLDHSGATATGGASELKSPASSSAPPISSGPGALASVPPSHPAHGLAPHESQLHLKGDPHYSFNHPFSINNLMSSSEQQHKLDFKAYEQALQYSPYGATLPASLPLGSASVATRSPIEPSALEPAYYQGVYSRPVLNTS
Sequence | normalised bound fraction
ATCTTCCCCCTCTTCCTTGCCCCACCAGCTCACCTTCCCGGGTTATTTGCAGATAGGAAAATAAATAAAGCCGGCATTCGTTAACCCTCTTCACGCGCATACTGCCAGAGCAAACAGATCTAACATGGTCCTGATGAATCATGAGGCTCCGGGAGAGCAAAGCACCGTGTCAGGGCCATGATCCGGGGTGGCC | 0.382 ratio
CAGTCACAGATTTGCATACAATACAATTATGTATTGGCTATTTACAATTTACAGTAGTGGTTCTTCCTCTGAGAAATATAAGTACAAAAGCTAAGTAAACAATGAGGTACTGCCATTTGGGATTTATTATGTGTCATAGCTTAAAGAACTGGCCTTTAGCAAATATTAAACAAATCAACCTGAATAAAATAGT | 0.532 ratio
TGTTTTAAGAGAAAAAGGGTTCCATGGGATCTCAAACTCTTGAGAGCTCTCTCTGTAGGTGGGAGTTCTGTCATGTGGGGTTTGTGCCCTTGTTATTTACAATGCAGAATGAACACGTGATATTTGACTCCACCTCTCCCCCACACCCAGACTGTGCCCACTTCCCCTCCTATGACATTTGGATCTTTCCATA | 0.144 ratio
TGGGCTTCGTATAATTACAATTCGTAAAATCAGTTGGCCTAATACTGTCTGAATAAACTTTTATTTAAAAAAAGAAAAAACGAAAATGTTATATGTAATCTGGGACTCTGGGAAGATATGAAGAGTTGGTAGTCTCCACTCTCATAGAAAACAAAGCCCGAAGAGGCAGGGGTGGGAGGAGTCCTAAAGAAGA | 0.0137 ratio
ATCTTCCCCCTCTTCCTTGCCCCACCAGCTCACCTACGGGGGTTATTTGCACAAAGGAAAATAAATAAAGCCGGCATTCGTTAACCCTCTTCTGGCGCAAACTGCTGTTTGCTCTGGATGAATCATGGTCCTTTGGCGACGCCAGGCTCCGGGAGAGCAAAGCACCGTGTCAGGGCCATGATCCGGGCTCGCC | 0.371 ratio
CAGATTGCTCAGAACCCTTCTCCCCACTTCCCCTCACCCTTTGGACCCTGGAACACACCAGGCCCATTCCTGAGGGCTTGAGAGCTGGGATCTCAGATTACTCAGATAGGTTGTGCTGTCCTGGCCCTAAGGGCCCTAAGGGCTCTGCCTTCTGGGAGGTCCCTGAGCTGGTGCCAGGATGGGCAGTGGGCTG | -0.0799 ratio
AAATGCCAACGTGTATTGGACTTCCCTCTAGTGGTTACATGCAAAATGACAAGCCTATAGTTCCCAAACAGAATGTTGTGTTGTTCTCTACACTGTTTACTTAGCAATCTGGATATTTACTGTGCTTCACTCCATGTACCTTCCATTCACACACTTGGCAAACACCATATCTTCCATGATATTCTCCTGTATC | 0.475 ratio
TCGGCCAGCCTGGCTTCTGCGCCCCGCCAGGAGGTCGCGGAGCGGAGCGCGGCCAGGAAGTGAGCTGAGAGTGACAGCTCCCCCCACGCTGTTTGTTTATTCTCTCCACACAATGACTCATTCCTGGCTCTTCTTTCTTTCGGGAGGAGGGGAGAAAGGAGCGGGAGGGCGGGCGGGCAGGGGAGAGGCAGGC | 0.322 ratio

Some of these lines once more (set 1):
Variant | normalised enrichment score
V4Q | 0.419
L7A | 0.308
L7K | -0.0622
